Experimental data collected from several papers.
Parts stem from different laboratories: compare values within a part only.
UniProt P48730, sequence (whole entry, looked up): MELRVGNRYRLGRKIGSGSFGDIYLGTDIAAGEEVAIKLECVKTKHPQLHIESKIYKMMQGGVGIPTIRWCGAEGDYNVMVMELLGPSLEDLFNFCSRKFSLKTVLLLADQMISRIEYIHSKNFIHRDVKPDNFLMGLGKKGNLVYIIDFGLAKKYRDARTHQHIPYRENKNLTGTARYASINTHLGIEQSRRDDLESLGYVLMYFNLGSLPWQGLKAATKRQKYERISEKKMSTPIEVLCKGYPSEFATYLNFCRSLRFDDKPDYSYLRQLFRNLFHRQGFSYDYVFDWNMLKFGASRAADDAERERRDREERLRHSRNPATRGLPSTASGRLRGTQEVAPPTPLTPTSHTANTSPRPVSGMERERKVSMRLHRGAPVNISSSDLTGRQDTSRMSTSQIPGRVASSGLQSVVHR
UniProt Q04771, sequence (whole entry, looked up): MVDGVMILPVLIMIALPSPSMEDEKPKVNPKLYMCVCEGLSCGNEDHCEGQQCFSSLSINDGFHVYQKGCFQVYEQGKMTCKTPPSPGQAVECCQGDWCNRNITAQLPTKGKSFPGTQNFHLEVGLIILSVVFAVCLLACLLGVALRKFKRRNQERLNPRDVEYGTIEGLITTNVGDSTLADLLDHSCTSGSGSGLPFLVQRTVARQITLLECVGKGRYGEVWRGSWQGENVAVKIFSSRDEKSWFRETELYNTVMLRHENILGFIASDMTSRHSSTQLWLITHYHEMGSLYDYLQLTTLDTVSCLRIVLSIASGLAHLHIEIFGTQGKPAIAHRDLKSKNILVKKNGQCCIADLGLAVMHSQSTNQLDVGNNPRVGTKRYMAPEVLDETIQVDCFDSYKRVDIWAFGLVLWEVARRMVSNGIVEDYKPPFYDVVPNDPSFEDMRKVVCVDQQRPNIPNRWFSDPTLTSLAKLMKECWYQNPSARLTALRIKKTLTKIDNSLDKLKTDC
UniProt P07332, sequence (whole entry, looked up): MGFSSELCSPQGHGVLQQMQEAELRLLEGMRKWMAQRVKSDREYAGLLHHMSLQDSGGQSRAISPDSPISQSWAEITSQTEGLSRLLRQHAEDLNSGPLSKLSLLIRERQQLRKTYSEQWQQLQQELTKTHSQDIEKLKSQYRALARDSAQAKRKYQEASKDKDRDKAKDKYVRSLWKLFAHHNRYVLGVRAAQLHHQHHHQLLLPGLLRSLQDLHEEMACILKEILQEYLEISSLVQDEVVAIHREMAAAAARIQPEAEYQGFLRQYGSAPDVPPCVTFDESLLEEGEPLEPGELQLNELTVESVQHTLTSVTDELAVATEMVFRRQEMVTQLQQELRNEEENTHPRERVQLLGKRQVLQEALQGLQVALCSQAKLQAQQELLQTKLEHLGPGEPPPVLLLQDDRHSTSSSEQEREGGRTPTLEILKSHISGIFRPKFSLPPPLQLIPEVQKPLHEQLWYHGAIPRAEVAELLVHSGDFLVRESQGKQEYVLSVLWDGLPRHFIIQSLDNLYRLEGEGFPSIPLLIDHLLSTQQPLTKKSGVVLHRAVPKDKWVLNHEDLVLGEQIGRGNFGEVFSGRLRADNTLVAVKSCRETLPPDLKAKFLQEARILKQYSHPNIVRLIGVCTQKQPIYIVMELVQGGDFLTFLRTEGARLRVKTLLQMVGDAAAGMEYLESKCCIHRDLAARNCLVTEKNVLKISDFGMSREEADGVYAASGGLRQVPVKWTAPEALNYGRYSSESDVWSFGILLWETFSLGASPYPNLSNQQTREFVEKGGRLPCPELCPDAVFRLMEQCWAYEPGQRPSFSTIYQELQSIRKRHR
UniProt P31749, sequence (whole entry, looked up): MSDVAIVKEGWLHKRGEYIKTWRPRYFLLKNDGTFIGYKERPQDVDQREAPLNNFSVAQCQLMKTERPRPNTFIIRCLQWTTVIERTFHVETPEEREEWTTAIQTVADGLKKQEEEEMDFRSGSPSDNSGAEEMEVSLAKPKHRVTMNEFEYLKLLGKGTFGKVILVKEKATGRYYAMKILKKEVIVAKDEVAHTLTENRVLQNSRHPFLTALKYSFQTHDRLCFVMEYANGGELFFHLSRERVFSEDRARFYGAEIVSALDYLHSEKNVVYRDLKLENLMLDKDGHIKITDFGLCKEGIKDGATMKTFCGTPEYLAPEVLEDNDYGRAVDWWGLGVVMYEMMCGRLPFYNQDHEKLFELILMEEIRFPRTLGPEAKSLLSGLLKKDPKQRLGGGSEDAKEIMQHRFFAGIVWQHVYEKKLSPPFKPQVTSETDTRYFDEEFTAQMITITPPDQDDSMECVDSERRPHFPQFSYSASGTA
UniProt Q96RR4, sequence (whole entry, looked up): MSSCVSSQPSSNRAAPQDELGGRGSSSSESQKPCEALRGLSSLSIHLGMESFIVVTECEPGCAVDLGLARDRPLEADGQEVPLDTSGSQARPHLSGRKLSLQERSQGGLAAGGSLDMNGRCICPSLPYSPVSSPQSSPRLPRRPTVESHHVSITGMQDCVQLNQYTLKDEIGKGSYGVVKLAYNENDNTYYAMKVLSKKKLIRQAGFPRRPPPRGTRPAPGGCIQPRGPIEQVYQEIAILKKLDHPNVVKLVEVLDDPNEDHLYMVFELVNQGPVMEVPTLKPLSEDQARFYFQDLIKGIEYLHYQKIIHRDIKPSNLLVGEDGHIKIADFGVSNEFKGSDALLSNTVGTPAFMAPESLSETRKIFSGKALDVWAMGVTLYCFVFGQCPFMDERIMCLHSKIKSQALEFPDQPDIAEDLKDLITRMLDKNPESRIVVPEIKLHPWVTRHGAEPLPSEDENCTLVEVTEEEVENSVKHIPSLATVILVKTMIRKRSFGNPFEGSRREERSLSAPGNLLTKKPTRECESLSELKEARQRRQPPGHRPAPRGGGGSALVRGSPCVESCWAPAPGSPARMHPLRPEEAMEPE
UniProt P42336, sequence (whole entry, unmodified, looked up): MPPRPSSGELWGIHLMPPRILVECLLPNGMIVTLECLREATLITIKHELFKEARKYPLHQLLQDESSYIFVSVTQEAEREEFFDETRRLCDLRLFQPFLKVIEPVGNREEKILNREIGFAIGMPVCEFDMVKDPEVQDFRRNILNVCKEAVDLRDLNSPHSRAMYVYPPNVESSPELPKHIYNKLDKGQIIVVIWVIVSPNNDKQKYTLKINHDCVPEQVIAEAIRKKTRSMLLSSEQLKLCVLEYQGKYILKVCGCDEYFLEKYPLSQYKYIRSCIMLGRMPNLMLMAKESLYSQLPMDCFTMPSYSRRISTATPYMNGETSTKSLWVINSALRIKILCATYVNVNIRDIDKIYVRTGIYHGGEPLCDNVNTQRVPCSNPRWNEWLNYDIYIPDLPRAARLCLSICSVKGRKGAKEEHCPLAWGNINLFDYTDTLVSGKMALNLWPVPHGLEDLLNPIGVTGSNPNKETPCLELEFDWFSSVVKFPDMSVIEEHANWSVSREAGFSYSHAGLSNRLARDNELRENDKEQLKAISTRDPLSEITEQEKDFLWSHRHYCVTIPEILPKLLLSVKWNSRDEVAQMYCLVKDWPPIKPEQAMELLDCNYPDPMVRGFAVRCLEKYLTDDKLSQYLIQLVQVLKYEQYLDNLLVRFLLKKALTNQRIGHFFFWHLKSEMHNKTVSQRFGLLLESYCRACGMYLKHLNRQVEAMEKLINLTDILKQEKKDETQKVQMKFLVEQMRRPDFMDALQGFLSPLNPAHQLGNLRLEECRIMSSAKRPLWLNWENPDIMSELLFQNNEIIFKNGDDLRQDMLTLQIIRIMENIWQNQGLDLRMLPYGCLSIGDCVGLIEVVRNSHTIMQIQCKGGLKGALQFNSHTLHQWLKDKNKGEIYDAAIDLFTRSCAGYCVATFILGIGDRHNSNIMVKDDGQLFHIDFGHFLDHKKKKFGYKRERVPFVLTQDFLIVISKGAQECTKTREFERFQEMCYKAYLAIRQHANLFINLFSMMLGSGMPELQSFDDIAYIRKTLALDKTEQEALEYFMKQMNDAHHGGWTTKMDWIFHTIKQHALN
UniProt P11802, sequence (whole entry, looked up): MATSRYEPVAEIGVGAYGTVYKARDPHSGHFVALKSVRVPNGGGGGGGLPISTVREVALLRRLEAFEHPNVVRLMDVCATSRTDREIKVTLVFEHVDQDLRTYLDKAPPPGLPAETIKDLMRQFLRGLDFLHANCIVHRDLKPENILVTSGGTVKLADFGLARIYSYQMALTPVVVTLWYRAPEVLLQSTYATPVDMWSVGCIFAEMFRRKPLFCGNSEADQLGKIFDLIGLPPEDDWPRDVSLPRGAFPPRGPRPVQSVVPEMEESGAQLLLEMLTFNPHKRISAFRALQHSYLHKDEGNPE
UniProt Q8WU08, sequence (whole entry, looked up): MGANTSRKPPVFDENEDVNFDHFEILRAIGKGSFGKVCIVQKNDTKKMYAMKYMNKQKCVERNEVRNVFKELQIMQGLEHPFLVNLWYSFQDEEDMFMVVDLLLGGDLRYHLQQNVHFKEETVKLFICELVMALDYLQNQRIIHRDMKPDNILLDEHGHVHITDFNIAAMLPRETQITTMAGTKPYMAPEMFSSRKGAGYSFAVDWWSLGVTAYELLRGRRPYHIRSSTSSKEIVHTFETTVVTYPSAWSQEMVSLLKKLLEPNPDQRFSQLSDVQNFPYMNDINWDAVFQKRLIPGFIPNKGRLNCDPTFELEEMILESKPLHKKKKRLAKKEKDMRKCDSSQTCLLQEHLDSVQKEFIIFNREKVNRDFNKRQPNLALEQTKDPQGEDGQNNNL

Series 1 — effect on: cell-free assay; method: competition with immobilised ligand; tested at: 1 µM; quantity: remaining binding
SMILES: CO[C@@H](C)c1c(Nc2ccc([C@@H](N(C)C(=O)C3CCS(=O)(=O)CC3)C(F)(F)F)cc2)cnc2cc(Cl)nn12
target = CAMKK2 (Homo sapiens, UniProt Q96RR4); result = 100%
target = CSNK1D (Homo sapiens, UniProt P48730); result = 100%
target = PIK3CA (Homo sapiens, UniProt P42336, E542K); result = 78%
target = AKT1 (Homo sapiens, UniProt P31749); result = 89%
target = ACVR1 (Homo sapiens, UniProt Q04771); result = 85%
target = FES (Homo sapiens, UniProt P07332); result = 100%
target = STK32A (Homo sapiens, UniProt Q8WU08); result = 100%
target = Cyclin-dependent kinase 4, with cyclin D3 (CDK4, Homo sapiens, UniProt P11802); result = 100%

Series 2 — method: RNA Bind-n-Seq; molecule type: RNA; medium: in vitro; tested at: 365 nM; relative to: no-protein control; reading: higher = stronger binding; quantity: RBNS enrichment (R)
Target: RNA binding protein fox-1 homolog 2, RRM domain, GST-SBP tag (RBFOX2, Homo sapiens, UniProt O43251-10, residues 100-194)
Notes: natural RNA segment, single round, ends assumed
Residues (chain): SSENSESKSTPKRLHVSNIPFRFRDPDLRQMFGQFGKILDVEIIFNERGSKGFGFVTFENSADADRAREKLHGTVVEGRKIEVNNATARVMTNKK
Strand = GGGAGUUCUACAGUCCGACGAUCUCUGUACACGUUCUUAAGCAGCGUGUCAGGAGAGCACCCUGUUGUCUUCUGGUAAAUGUGUGCAGGGUCAUCCUGUCUCCUGUACCUCCUGGGAAAGGGGCCGCUGCUGUUGGAAUUCUCGGGUGCCAA; result = 0.219
Strand = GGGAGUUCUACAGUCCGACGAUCAUCCUCCUGUCUAAUUUGCACCUUUGUCUGGAUGCACACUUCUGACCUUGCUGCCACAACCUGUGGGGUCUGAUGUGUCCCUUGAUGGGUGCUGCCCUCAGGGACUGCACUGGAAUUCUCGGGUGCCAA; result = 0.221
Strand = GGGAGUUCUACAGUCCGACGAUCUUGCACUACACUCACUCCGUGCUGCAAGUCCAGGGAUACUGUCUGUGGCCACUGAAGUCUCAGGUGCAGAUGGGUUCUCCCGGGAACCCAGGGUUGGAUCCAUAAGGCUUUGGAAUUCUCGGGUGCCAA; result = 0.258
Strand = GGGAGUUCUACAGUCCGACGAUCCCUGGACUCUGCCUUAGCUCCCACCUCUCAGCCUUGUUAUUGGGUUUCAUGCCCCUGGACCAGCCUUAUCUCAGACCUGCUUACCUGCAUGAUGCCUUUUUGGGGGCUGGUGGAAUUCUCGGGUGCCAA; result = 5.74
Strand = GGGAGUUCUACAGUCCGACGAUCGUCCCCAUUAAAGGACCCUCCAGAGAGGGACAGUAACUGUGCAUGAGAAGCCGCUCCCAUAAGCCUCCUCAGCCAGAUGUCAUGGGUGGAACUGGAGCUGUGUCGGGGCCUGGAAUUCUCGGGUGCCAA; result = 6.47
Strand = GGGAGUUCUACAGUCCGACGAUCCCUUUUAUGGGAGUGCAGUGCUCCUUACACAAAUACAAAGGGAAGAAGAGCCAGCAGUUGAGGCUCCUCAGUUUUAGUGCUGAAAUAAUAAACAGUGACAGGUCAACAGUUGGAAUUCUCGGGUGCCAA; result = 0.657
Strand = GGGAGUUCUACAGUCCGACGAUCGCUUCUGCCUCUGUUUCCAAGCCCACCCUUUUCCCCUGAGCUCAGGGUUAGGGAUGGGCGCUUUCCUCUCUGGUUGUGAACGAAAGGAAGGAACAUCUUUCUAUGGCUAAUGGAAUUCUCGGGUGCCAA; result = 0.311
Strand = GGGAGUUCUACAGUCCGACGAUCUGAUUGACCUUUGCAUACCCUGGAAAGCCAGGGUGUGAGUGGGGUGGUUGGGAGUGGUGCCAGUUGAACAGCAGAUUCUGCUUCUUGUCACUGUUUCAAAAGCGUCAACUUGGAAUUCUCGGGUGCCAA; result = 0.196

Series 3 — effect on: enzyme activity; mode: inhibitor; tested at: 0.5 µM; relative to: control; quantity: remaining activity
Target: Cyclin-dependent kinase 3, with cyclin E (CDK3, Homo sapiens, UniProt Q00526)
UniProt Q00526, sequence (whole entry, looked up): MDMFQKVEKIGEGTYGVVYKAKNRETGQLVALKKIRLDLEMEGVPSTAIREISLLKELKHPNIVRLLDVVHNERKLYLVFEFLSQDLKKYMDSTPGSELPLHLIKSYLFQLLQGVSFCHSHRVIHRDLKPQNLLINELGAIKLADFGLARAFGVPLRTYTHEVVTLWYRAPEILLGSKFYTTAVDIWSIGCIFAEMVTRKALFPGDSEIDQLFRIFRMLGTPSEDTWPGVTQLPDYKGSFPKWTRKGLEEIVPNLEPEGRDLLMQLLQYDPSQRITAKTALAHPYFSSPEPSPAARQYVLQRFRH
SMILES = Cn1c2ccccc2c2c3c(c4c5ccccc5n(CCC#N)c4c21)CNC3=O; result = 65.2%
SMILES = O=C1NC(=O)C(c2cn(CCCO)c3ncccc23)=C1c1cnccn1; result = 89.4%
SMILES = Cc1cccc(-c2[nH]c(C(C)(C)C)nc2-c2ccc3c(c2)OCO3)n1; result = 97.6%
SMILES = COc1cc2ncnc(Nc3ccc(Oc4ccccc4)cc3)c2cc1OC; result = 98.5%
SMILES = NCCNc1ncc(C(N)=O)c(Nc2cccc(C(F)(F)F)c2)n1; result = 95.3%
SMILES = Nc1[nH]nc2nc3ccccc3nc12; result = 93.1%
SMILES = CNC(=O)c1cc(Oc2ccc(NC(=O)Nc3ccc(Cl)c(C(F)(F)F)c3)cc2)ccn1; result = 96.5%
SMILES = COc1ccc(C(=O)Nc2sc3c(c2C(N)=O)CCCC3)cc1OC; result = 104%
SMILES = CO[C@H]1C[C@@H]2CC[C@@H](C)[C@@](O)(O2)C(=O)C(=O)N2CCCC[C@H]2C(=O)O[C@H]([C@H](C)C[C@@H]2CC[C@@H](O)[C@H](OC)C2)CC(=O)[C@H](C)/C=C(\C)[C@@H](O)[C@@H](OC)C(=O)[C@H](C)C[C@H](C)/C=C/C=C/C=C/1C; result = 102%
SMILES = Cc1ccc(NC(=O)c2ccc(CN3CCN(C)CC3)cc2)cc1Nc1nc(-c2cccnc2)cs1; result = 90.2%
SMILES = COc1ccc(CNC(=O)Nc2ncc([N+](=O)[O-])s2)cc1; result = 94.8%
SMILES = CN(C)c1ccc(C=C2C(=O)Nc3ccccc32)cc1; result = 98.7%
SMILES = OCC(O)CCON=C1C(c2c(O)[nH]c3ccccc23)=Nc2ccccc21 (stereo not shown); result = 65.2%
SMILES = O=C(Nc1cccc(Nc2cc(Nc3cccc(C(F)(F)F)c3)ncn2)c1)C1CC1; result = 94.8%
SMILES = Nc1ccc2ncnc(NCCc3ccc(Oc4ccccc4)cc3)c2c1; result = 94.8%
SMILES = Cc1ccc(Nc2nccc(N(C)c3ccc4c(C)n(C)nc4c3)n2)cc1S(N)(=O)=O; result = 93.5%

Series 4 — method: aptamer microarray, sandwich; molecule type: DNA with 2'F-ANA; medium: in vitro; tested at: 200 nM; with: Cy3 exosite-II aptamer, 400 nM; reading: higher = stronger binding; quantity: mean fluorescence intensity; strand: GGTTGGTGTGGTTGG
Target: Prothrombin, mature alpha-thrombin (F2, Homo sapiens, UniProt P00734)
Notes: whole 15-mer aptamer, many near background
Modification = 2'F-ANA at 1 3 5 6 7 8 11 12 14; result = 53.4 a.u.
Modification = 2'F-ANA at 1 4 5 6 7 8 9 10 12; result = 52.1 a.u.
Modification = 2'F-ANA at 1 2 4 6 10 15; result = 54.3 a.u.
Modification = 2'F-ANA at 2 6 8 9 10 11 12 13 15; result = 166 a.u.
Modification = 2'F-ANA at 6 7 8 12 14; result = 277 a.u.
Modification = 2'F-ANA at 1 3 4 5 6 7 11 12 15; result = 88.8 a.u.
Modification = 2'F-ANA at 4 8 10 13; result = 66.4 a.u.
Modification = 2'F-ANA at 4 5 6 8 11 12 14; result = 46.1 a.u.

Some of these lines once more (series 3):
SMILES = OCC(O)CCON=C1C(c2c(O)[nH]c3ccccc23)=Nc2ccccc21 (stereo not shown); result = 65.2%
SMILES = CO[C@H]1C[C@@H]2CC[C@@H](C)[C@@](O)(O2)C(=O)C(=O)N2CCCC[C@H]2C(=O)O[C@H]([C@H](C)C[C@@H]2CC[C@@H](O)[C@H](OC)C2)CC(=O)[C@H](C)/C=C(\C)[C@@H](O)[C@@H](OC)C(=O)[C@H](C)C[C@H](C)/C=C/C=C/C=C/1C; result = 102%
